Assay results from different studies.
Numbered parts are unrelated; each lists some results of a single study. Substitutions count along the parent as printed.

Series 1
Target: Krueppel-like factor 3, full length (KLF3, Homo sapiens, UniProt P57682, residues 1-345)
Sequence of UniProt P57682 (whole entry, looked up): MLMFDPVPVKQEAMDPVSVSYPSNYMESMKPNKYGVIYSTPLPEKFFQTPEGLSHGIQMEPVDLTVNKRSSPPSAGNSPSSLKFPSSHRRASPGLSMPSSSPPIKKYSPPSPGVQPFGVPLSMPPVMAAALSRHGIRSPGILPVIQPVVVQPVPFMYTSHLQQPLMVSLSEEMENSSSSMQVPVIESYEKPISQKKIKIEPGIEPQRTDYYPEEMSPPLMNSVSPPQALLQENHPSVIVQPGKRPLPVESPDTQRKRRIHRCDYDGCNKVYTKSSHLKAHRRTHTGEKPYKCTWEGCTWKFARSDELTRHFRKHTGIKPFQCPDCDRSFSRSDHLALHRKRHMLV
Technique: protein-binding microarray
Molecule type: hairpin DNA
Sample: in vitro
Concentration: not given
Notes: whole hairpin DNA, median over replicate spots
Relative to: not given
Reading: higher = stronger binding
Quantity: median fluorescence
Constant ends, left off below: GAGGCCG … CGGCCTCACACTC
Sequence = ACCGCGCCCCGCCTCCTGGCGGGGCGCGGT; result = 9030 a.u.
Sequence = ACGGCGCCCAGCCTCCTGGCTGGGCGCCGT (5mC at 35); result = 8390 a.u.
Sequence = ACCGCGCCCAGCCTCCTGGCTGGGCGCGGT (5mC at 12 34); result = 8490 a.u.
Sequence = ACCACGCCCAGCCTCCTGGCTGGGCGTGGT (5mC at 15); result = 9610 a.u.
Sequence = ACCCGGCCCAGCCTCCTGGCTGGGCCGGGT; result = 8300 a.u.
Sequence = ACCCGGCCCAGCCTCCTGGCTGGGCCGGGT (5mC at 33); result = 8120 a.u.
Sequence = ACCGCGACCAGCCTCCTGGCTGGTCGCGGT; result = 8620 a.u.
Sequence = ACCACGCGCAGCCTCCTGGCTGCGCGTGGT (5mC at 30); result = 15600 a.u.
Sequence = ACCACGCCCGGCCTCCTGGCCGGGCGTGGT (5mC at 28); result = 10200 a.u.
Sequence = CCCACGCCCAGCCTCCTGGCTGGGCGTGGG (5mC at 8); result = 8980 a.u.
Sequence = ACCGCGCGCAGCCTCCTGGCTGCGCGCGGT (5mC at 14); result = 12300 a.u.
Sequence = CGCGCGCCCAGCCTCCTGGCTGGGCGCGCG; result = 11500 a.u.
Sequence = ACCACGGCCAGCCTCCTGGCTGGCCGTGGT; result = 8470 a.u.
Sequence = ACGGCGCCCAGCCTCCTGGCTGGGCGCCGT (5mC at 9); result = 8530 a.u.
Sequence = ACCGCGCCCAGCCTCCTGGCTGGGCGCGGT (5mC at 10 34); result = 8700 a.u.
Sequence = ACCCGGCCCAGCCTCCTGGCTGGGCCGGGT (5mC at 11 33); result = 7870 a.u.
Sequence = ACCACGCCCTGCCTCCTGGCAGGGCGTGGT; result = 10300 a.u.
Sequence = ACCACGGCCAGCCTCCTGGCTGGCCGTGGT (5mC at 31); result = 8520 a.u.
Sequence = ACCGCGCCCGGCCTCCTGGCCGGGCGCGGT (5mC at 28); result = 9230 a.u.
Sequence = ACCGCGCCGAGCCTCCTGGCTCGGCGCGGT (5mC at 15); result = 8700 a.u.
Sequence = ACCGCGCACAGCCTCCTGGCTGTGCGCGGT; result = 8780 a.u.

Series 2
Target: Histone acetyltransferase KAT6A, winged helix 2, GST fusion (KAT6A, Homo sapiens, UniProt Q92794, residues 85-181)
Technique: protein binding microarray
Molecule type: double-stranded DNA, one strand shown
Sample: in vitro
Concentration: not given
Notes: 8-mer, flanks averaged, mean of 2 arrays, mostly near background
Relative to: not given
Reading: higher = stronger binding
Quantity: E-score
Construct (chain): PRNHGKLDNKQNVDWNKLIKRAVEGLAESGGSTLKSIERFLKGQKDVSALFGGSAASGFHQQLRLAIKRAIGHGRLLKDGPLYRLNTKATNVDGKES
Sequence = ATGGTAAC; result = -0.0671
Sequence = ACAGGCGG; result = 0.16
Sequence = AATGCATA; result = -0.207
Sequence = CTCATTAA; result = -0.0571
Sequence = AAATCCCA; result = -0.0274
Sequence = ATTGTAGC; result = -0.0549
Sequence = CCTATGCG; result = -0.0237
Sequence = GCTTGCCA; result = 0.0989
Sequence = GGAATAAC; result = 0.00715
Sequence = AAAAACGA; result = -0.0793
Sequence = TACGAGGA; result = -0.0997
Sequence = AATGCGAA; result = 0.0919
Sequence = AACGCACC; result = -0.0729
Sequence = ACACCCCG; result = -0.0815
Sequence = CCCCAGGC; result = 0.0859
Sequence = AAGCTCAA; result = -0.0664
Sequence = TCAACTCA; result = -0.0532
Sequence = CCGGGAGA; result = 0.13
Sequence = CCCACACC; result = 0.135
Sequence = CTGAGCTA; result = -0.0759
Sequence = AATAGGCG; result = 0.168
Sequence = ACGAAAAA; result = -0.0301
Sequence = CAGATTAA; result = 0.08
Sequence = GACGGCCC; result = 0.0908
Sequence = CTAGTAAA; result = 0.0641

Series 3
Target: Prothrombin, mature alpha-thrombin (F2, Homo sapiens, UniProt P00734)
Technique: aptamer microarray, sandwich
Molecule type: DNA with 2'F-ANA
Sample: in vitro
Concentration: 200 nM
Notes: whole 15-mer aptamer, many near background
Together with: Cy3 exosite-II aptamer, 400 nM
Reading: higher = stronger binding
Quantity: mean fluorescence intensity
Sequence: GGTTGGTGTGGTTGG
Modification = 2'F-ANA at 2 3 4 5 9 13 14; result = 50.1 a.u.
Modification = 2'F-ANA at 1 3 5 8 10 11 15; result = 97.4 a.u.
Modification = 2'F-ANA at 2 3 4 5 6 7 9 10 12 13 14 15; result = 62.5 a.u.
Modification = 2'F-ANA at 2 3 4 5 7 11 12 13 15; result = 98.4 a.u.
Modification = 2'F-ANA at 1 2 5 8 11 13; result = 52.7 a.u.
Modification = 2'F-ANA at 2 3 6 10 14; result = 282 a.u.
Modification = 2'F-ANA at 5 6 7 9 10 11 13; result = 155 a.u.
Modification = 2'F-ANA at 1 2 3 5 6 7 10 11 12; result = 48.2 a.u.
Modification = 2'F-ANA at 1 4 5 8 14 15; result = 49.9 a.u.
Modification = 2'F-ANA at 3 6 9 11 14 15; result = 504 a.u.
Modification = 2'F-ANA at 1 3 5 6 7 8 11 12 13 15; result = 86.2 a.u.
Modification = 2'F-ANA at 1 3 10 11 14; result = 57.8 a.u.
Modification = 2'F-ANA at 1 2 3 5 7 9 11 12 13 14; result = 61.4 a.u.
Modification = 2'F-ANA at 1 4 9 11 12 14 15; result = 88.7 a.u.
Modification = 2'F-ANA at 1 8 9 11 14 15; result = 55.9 a.u.
Modification = 2'F-ANA at 1 3 5 9 11 14; result = 45.5 a.u.
Modification = 2'F-ANA at 2 3 4 8 10 11 13 14; result = 158 a.u.
Modification = 2'F-ANA at 1 5 6 7 8 10 11 14 15; result = 62.1 a.u.
Modification = 2'F-ANA at 1 2 6 7 9 10 11 15; result = 54.4 a.u.
Modification = 2'F-ANA at 2 3 7 9 10 11 12 15; result = 404 a.u.
Modification = 2'F-ANA at 2 3 5 7 11 12; result = 175 a.u.
Modification = 2'F-ANA at 1 2 4 9 11 13 15; result = 69.8 a.u.
Modification = 2'F-ANA at 1 3 4 7 9 12 13 14 15; result = 67.9 a.u.
Modification = 2'F-ANA at 2 4 5 6 8 12 13 15; result = 94.5 a.u.
Modification = 2'F-ANA at 4 5 6 9 11 14 15; result = 47.8 a.u.

Series 4
Target: ABI1, truncated, D143A, DHFR fusion (Arabidopsis thaliana)
Technique: DHFR PCA, deep sequencing
Sample: yeast
Notes: methotrexate growth selection, single substitutions
Together with: (+)-ABA 2500 µM
Relative to: wild-type fitted maximum
Reading: higher = stronger binding
Quantity: relative binding score
Starting sequence: PYL1, truncated, DHFR fusion (Arabidopsis thaliana); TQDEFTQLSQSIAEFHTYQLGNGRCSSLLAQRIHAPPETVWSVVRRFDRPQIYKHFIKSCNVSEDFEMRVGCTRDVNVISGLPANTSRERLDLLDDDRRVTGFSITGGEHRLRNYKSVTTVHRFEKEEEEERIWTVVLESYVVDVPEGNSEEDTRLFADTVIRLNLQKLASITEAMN
Change = E89K; result = -14%
Change = A13L; result = 102%
Change = E131G; result = 109%
Change = M176I; result = 96.8%
Change = E125Y; result = 107%
Change = D153I; result = 33%
Change = V137A; result = 82.8%
Change = I172L; result = 93.5%
Change = N77A; result = 98.5%
Change = V143G; result = 51.7%
Change = R132L; result = 104%
Change = H16D; result = 41.7%
Change = G102H; result = 26.9%
Change = K126D; result = 100%

Series 5
Target: Centromere-binding protein 1, full length, His-tagged (CBF1, Saccharomyces cerevisiae, UniProt P17106, residues 1-351)
Sequence of UniProt P17106 (whole entry, looked up): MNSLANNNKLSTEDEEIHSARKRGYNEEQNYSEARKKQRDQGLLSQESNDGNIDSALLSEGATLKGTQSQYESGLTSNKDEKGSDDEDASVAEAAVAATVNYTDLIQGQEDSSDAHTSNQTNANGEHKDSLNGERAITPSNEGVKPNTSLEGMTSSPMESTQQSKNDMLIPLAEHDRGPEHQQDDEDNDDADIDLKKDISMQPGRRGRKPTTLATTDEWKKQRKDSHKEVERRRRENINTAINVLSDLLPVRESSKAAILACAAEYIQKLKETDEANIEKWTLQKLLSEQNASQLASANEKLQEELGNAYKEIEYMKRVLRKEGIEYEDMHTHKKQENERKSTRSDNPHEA
Technique: competition protein-binding microarray
Molecule type: double-stranded DNA, one strand shown
Sample: in vitro
Concentration: 2 µM
Notes: whole 60-bp probe, lowest competitor level
Together with: Pho4 competitor, 0.05 µM
Reading: higher = stronger binding
Quantity: fluorescence intensity
Constant ends, left off below: … GTCTTGATTCGCTTGACGCTGCTG
Sequence = CGTTCAAAGCCTTTTCACGTTGAGCATCAGCCTTAG; result = 80.4 a.u.
Sequence = ACTTCTCCTCTGATCTTCGTGATGGGAGTTTTGAGT; result = 73.8 a.u.
Sequence = ACTAACGACTATTTGCACGTTGCAGTATTGTTCTGG; result = 157 a.u.
Sequence = GCGCTGCGCAATCTCAACGTGGTGAGGATCTTTGAA; result = 74.4 a.u.
Sequence = AAAGCGGTAATTTGTCACTAGACTTCACATATCTAT; result = 105 a.u.
Sequence = GTCTTGTCTCATTAACACGTGTTTTTCCCCACTTCA; result = 1720 a.u.
Sequence = CCGGTAAAAGCCGGGAACGTGCGGAACAATTTTTTT; result = 91.8 a.u.
Sequence = ACAAGTTCATCATTTCACGTGTGGAGCATAGTGTGG; result = 532 a.u.
Sequence = ATCATTTTTTACCATCACGCTTAACCTCGATATCTC; result = 168 a.u.
Sequence = ATCAAATGAGACTAGCACATGGGGCTCTCGTTAGCC; result = 92 a.u.
Sequence = CACTCGGCCATGAGGCACATGCAAACAAACGCTGCA; result = 157 a.u.
Sequence = ACTACGAATTTTTCATTCGTGACTCGAAAAACCTAG; result = 170 a.u.
Sequence = GATGATGTGCTTGTCATCGTGGGTAACTTCACCAGC; result = 74.5 a.u.
Sequence = GCATAAGGAGTGGCCCATGTGTGCCAAAACTCTTCT; result = 78.3 a.u.
Sequence = CGGGGTTAAGTTTGTGGGGTGGGTGGCTTGCAGCAG; result = 65.9 a.u.
Sequence = CATCGCACCCTGACATTCGTGACAAAATAAGAACAA; result = 97.5 a.u.
Sequence = CGGGGTTAAGTTTGACTAGTGGGTGGCTTGCAGCAG; result = 80.5 a.u.
Sequence = CCGGTATCTTTCCAAATCGTGCCGATGCTTGGAACC; result = 61.6 a.u.
Sequence = CATACCCAACCTTGTCACGTCACTTAAGATATTTGT; result = 139 a.u.
Sequence = CTGGCTCATATGCCACACATGTCAGTAGGTTCATAG; result = 99.9 a.u.
Sequence = GGTATGTTCTGCAACAGCGTGCCAGTCTCTTGGCCC; result = 81.4 a.u.
Sequence = CGGGGTTAAGTTTAACACGTGTTTTGCTTGCAGCAG; result = 1410 a.u.

For quick reference, copied from above (series 5):
Sequence = CGTTCAAAGCCTTTTCACGTTGAGCATCAGCCTTAG; result = 80.4 a.u.
Sequence = ACTTCTCCTCTGATCTTCGTGATGGGAGTTTTGAGT; result = 73.8 a.u.
Sequence = ACTAACGACTATTTGCACGTTGCAGTATTGTTCTGG; result = 157 a.u.
Sequence = GCGCTGCGCAATCTCAACGTGGTGAGGATCTTTGAA; result = 74.4 a.u.
Sequence = AAAGCGGTAATTTGTCACTAGACTTCACATATCTAT; result = 105 a.u.
Sequence = GTCTTGTCTCATTAACACGTGTTTTTCCCCACTTCA; result = 1720 a.u.
Sequence = CCGGTAAAAGCCGGGAACGTGCGGAACAATTTTTTT; result = 91.8 a.u.
Sequence = ACAAGTTCATCATTTCACGTGTGGAGCATAGTGTGG; result = 532 a.u.
Sequence = ATCATTTTTTACCATCACGCTTAACCTCGATATCTC; result = 168 a.u.
Sequence = ATCAAATGAGACTAGCACATGGGGCTCTCGTTAGCC; result = 92 a.u.
Sequence = CACTCGGCCATGAGGCACATGCAAACAAACGCTGCA; result = 157 a.u.
